Experimental data from different studies.
Protocols differ between the studies behind these lines. ± marks the error that the study gave.
ADRA1D: Alpha-1D adrenergic receptor (ADRA1D, Homo sapiens, UniProt P25100)
Chain of UniProt P25100 (whole entry, looked up): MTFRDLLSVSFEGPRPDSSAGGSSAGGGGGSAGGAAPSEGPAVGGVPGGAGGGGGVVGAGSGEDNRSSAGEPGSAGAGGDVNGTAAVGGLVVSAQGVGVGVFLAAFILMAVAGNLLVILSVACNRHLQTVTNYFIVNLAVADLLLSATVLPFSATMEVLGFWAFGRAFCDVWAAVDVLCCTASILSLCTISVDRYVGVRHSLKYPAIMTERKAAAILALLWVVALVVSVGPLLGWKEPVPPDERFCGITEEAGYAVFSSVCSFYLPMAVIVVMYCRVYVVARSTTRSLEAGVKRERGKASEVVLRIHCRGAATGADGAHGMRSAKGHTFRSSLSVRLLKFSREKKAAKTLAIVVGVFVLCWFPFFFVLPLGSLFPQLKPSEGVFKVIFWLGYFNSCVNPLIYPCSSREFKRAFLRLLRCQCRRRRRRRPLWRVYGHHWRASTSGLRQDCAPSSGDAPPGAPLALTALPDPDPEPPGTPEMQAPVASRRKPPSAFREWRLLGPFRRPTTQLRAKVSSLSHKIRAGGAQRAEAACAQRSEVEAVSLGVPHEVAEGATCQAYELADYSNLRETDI
Chain of UniProt O60894 (whole entry, looked up): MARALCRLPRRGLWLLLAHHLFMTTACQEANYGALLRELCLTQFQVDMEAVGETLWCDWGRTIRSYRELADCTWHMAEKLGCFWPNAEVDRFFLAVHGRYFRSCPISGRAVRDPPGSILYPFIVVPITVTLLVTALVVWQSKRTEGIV
Chain of UniProt P41143 (whole entry, unmodified, looked up): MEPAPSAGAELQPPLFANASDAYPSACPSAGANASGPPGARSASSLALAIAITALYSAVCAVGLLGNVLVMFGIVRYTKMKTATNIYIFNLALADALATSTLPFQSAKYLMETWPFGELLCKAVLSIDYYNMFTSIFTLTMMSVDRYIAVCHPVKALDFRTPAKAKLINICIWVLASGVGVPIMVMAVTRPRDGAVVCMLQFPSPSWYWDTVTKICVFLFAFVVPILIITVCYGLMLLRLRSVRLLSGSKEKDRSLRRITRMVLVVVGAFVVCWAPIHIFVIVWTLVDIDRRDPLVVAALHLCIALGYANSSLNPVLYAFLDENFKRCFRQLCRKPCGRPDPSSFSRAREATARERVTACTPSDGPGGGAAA
Chain of UniProt P41145 (whole entry, looked up): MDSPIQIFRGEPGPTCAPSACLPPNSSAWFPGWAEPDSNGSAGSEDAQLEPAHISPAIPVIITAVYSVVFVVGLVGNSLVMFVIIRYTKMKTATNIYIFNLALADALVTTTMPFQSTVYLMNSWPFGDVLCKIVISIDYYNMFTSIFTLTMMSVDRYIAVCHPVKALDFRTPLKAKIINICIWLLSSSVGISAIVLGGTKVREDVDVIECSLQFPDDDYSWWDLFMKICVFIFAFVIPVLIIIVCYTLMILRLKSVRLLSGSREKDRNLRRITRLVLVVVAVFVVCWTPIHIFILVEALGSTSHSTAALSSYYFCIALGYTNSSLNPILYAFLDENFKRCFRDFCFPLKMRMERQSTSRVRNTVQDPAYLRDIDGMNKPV
Chain of UniProt P21784 (whole entry, looked up): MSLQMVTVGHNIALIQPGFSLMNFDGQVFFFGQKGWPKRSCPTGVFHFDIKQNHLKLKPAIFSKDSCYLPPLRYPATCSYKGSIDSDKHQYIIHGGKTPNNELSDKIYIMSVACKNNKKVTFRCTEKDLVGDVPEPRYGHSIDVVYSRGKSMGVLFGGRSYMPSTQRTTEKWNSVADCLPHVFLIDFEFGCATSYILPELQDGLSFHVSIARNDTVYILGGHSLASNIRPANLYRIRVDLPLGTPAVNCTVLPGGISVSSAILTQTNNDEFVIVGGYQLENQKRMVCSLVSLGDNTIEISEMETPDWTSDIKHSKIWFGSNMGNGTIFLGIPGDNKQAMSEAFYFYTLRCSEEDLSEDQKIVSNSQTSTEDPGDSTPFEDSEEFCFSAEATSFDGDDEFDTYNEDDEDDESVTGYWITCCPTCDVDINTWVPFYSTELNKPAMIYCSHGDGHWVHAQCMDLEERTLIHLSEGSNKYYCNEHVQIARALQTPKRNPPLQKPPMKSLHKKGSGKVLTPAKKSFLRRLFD
Chain of UniProt Q15208 (whole entry, looked up): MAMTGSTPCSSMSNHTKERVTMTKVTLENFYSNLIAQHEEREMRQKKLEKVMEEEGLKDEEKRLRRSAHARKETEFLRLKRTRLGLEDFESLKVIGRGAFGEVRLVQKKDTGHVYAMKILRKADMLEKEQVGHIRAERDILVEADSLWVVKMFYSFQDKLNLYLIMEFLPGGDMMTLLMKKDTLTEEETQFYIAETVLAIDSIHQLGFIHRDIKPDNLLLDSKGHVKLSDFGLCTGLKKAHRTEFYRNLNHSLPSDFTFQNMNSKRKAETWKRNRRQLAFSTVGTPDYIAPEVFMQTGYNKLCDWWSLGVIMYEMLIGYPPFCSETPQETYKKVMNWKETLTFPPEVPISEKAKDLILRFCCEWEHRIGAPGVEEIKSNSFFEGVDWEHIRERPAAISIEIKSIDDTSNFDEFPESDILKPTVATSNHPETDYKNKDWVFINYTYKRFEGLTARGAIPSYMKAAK
Chain of UniProt O09047 (whole entry, looked up): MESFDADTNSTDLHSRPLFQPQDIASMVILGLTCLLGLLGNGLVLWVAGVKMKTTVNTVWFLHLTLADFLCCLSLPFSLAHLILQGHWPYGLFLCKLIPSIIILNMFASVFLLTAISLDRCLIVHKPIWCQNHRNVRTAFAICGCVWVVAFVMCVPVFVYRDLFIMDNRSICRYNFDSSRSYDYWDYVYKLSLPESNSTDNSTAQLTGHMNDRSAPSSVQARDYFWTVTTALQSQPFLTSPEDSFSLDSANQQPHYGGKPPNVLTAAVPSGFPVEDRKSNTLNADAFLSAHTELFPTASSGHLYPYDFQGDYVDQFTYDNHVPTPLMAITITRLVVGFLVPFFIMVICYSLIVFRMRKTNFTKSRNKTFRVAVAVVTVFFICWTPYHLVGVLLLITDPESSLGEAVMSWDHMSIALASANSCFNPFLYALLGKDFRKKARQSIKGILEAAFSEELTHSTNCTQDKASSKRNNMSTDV
Chain of UniProt P30988 (whole entry, looked up): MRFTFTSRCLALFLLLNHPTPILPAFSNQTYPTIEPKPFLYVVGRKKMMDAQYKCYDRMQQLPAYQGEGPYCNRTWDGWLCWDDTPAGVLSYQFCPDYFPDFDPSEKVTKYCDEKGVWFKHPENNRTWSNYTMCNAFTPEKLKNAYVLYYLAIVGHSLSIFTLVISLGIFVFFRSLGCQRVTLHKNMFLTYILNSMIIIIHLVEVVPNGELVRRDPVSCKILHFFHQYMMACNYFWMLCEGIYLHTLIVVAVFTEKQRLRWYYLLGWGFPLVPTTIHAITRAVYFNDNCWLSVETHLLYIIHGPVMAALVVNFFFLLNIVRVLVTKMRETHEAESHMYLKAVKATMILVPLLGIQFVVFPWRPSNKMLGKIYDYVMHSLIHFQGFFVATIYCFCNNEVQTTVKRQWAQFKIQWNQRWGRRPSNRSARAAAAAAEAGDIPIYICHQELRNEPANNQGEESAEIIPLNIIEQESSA
Chain of UniProt P49137 (whole entry, looked up): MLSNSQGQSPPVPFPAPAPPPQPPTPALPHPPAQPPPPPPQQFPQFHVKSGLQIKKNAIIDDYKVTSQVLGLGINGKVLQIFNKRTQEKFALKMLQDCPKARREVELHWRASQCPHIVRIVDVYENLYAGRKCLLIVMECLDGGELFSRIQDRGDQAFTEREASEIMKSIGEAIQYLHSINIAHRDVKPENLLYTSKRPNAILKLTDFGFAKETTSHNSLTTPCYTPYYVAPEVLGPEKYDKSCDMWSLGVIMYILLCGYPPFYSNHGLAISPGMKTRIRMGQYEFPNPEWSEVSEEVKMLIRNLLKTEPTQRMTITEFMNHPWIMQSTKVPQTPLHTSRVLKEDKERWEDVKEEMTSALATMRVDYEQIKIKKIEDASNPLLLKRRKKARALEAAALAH
Chain of UniProt Q9UKP6 (whole entry, unmodified, looked up): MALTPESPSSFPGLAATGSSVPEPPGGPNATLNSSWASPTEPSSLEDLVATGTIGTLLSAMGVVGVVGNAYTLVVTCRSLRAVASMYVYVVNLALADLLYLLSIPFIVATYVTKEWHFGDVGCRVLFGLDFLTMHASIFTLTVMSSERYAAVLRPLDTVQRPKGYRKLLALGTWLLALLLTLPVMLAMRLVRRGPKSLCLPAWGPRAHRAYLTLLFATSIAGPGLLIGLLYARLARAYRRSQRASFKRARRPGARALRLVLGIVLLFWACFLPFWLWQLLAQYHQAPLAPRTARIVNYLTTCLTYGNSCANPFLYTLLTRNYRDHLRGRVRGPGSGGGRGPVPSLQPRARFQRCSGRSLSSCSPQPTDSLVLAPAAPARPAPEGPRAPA
Chain of UniProt P21728 (whole entry, looked up): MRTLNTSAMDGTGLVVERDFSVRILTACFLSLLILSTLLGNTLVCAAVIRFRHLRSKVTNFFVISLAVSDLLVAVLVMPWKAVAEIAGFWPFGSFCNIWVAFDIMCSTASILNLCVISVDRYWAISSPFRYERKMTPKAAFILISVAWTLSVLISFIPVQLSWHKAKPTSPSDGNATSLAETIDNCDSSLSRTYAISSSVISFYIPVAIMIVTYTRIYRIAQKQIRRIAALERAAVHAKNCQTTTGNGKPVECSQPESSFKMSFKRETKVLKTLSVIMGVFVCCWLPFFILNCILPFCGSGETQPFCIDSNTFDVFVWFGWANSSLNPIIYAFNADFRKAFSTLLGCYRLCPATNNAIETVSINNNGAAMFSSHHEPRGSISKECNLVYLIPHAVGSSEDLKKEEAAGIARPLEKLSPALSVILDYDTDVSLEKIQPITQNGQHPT

With `CN(C)[C@H](CNC(=O)/C=C/c1cccc2ccccc12)Cc1ccc(O)cc1` the Ki was 1.2 µM (DRD1 (Homo sapiens, UniProt P21728); cell-free assay).
With `Cc1cc(C(c2ccc(Cl)cc2)c2ccc(Cl)cc2)sc1C(=O)N[C@@H](CCCNC(=N)N)C(=O)O` the EC50 was 0.00251 µM (C3a anaphylatoxin chemotactic receptor (C3ar1, Mus musculus, UniProt O09047); GoA dissociation, agonist, NanoBiT G-protein).
`COc1ccccc1-c1n[nH]c2nc(NC3CCN(C(=O)Cc4ccc(F)cc4F)CC3)ncc12` gave a relative abundance of 1.41 (bead binding, competition bead pull-down, refers to: LINJ.29.0890; Leishmania donovani axenic amastigote extract; 10 µM; baseline: vehicle).
`O=C1c2ccccc2CCCN1CCCCN1CCN(c2cccc(Cl)c2Cl)CC1` gave a Ki of 0.21 µM (ADRA1D; ligand displacement, radioligand).
`CC(C)(C)C(=O)OCOP(=O)(OCOC(=O)C(C)(C)C)C1CCCN(O)C1=O` (stereo not drawn) has a TGI of 5.22 µM (U-251).
The Kb of `CSCC[C@H](NC(=O)[C@H](CCC(N)=O)NC(=O)[C@H](CCCCN)NC(=O)[C@H](CCCNC(=N)N)NC(=O)[C@H](Cc1ccc(O)cc1)NC(=O)[C@H](CCCNC(=N)N)NC(=O)[C@H](CO)NC(=O)[C@H](Cc1ccc(O)cc1)NC(=O)[C@H](CO)NC(=O)[C@H](CC(=O)O)NC(=O)[C@@H](NC(=O)[C@@H](N)Cc1ccccc1)[C@@H](C)O)C(=O)N[C@@H](C)C(=O)N[C@H](C(=O)N[C@@H](CCCCN)C(=O)N[C@@H](CCCCN)C(=O)N[C@@H](Cc1ccc(O)cc1)C(=O)N[C@@H](CC(C)C)C(=O)N[C@@H](C)C(=O)N[C@@H](C)C(=O)N[C@H](C(=O)N[C@@H](CC(C)C)C(=O)NCC(=O)N[C@@H](CCCCN)C(=O)N[C@@H](CCCNC(=N)N)C(=O)N[C@@H](Cc1ccc(O)cc1)C(=O)N[C@@H](CCCCN)C(=O)N[C@@H](CCC(N)=O)C(=O)N[C@@H](CCCCn1cc(C[C@H](NC(=O)CNC(=O)[C@H](CO)NC(=O)[C@H](CCCNC(=N)N)NC(=O)[C@H](CO)NC(=O)[C@H](CC(C)C)NC(=O)[C@H](CC(C)C)NC(=O)CNC(=O)[C@H](C)NC(=O)[C@H](CC(C)C)NC(=O)[C@H](CCCNC(=N)N)NC(=O)[C@H](Cc2c[nH]cn2)NC(=O)[C@@H](NC(=O)[C@@H](N)C(C)C)[C@@H](C)O)C(=O)N[C@H](C(=O)N[C@H](C(=O)N[C@@H](CCCCN)C(=O)N[C@@H](CC(N)=O)C(=O)N[C@@H](CC(N)=O)C(=O)N[C@@H](Cc2ccccc2)C(=O)N[C@H](C(=O)N2CCC[C@H]2C(=O)N[C@H](C(=O)N[C@@H](CC(N)=O)C(=O)N[C@H](C(=O)NCC(=O)N[C@@H](CO)C(=O)N[C@@H](CCCCN)C(=O)N[C@@H](C)C(=O)N[C@@H](Cc2ccccc2)C(N)=O)C(C)C)[C@@H](C)O)C(C)C)C(C)C)C(C)C)nn1)C(=O)N[C@H](C(=O)N[C@@H](CCCCN)C(=O)N[C@@H](CC(N)=O)C(=O)N[C@@H](CCCCN)C(N)=O)C(C)C)C(C)C)C(C)C` is reported as 0.022 µM (Amylin receptor AMY1, CALCR/RAMP1 (Homo sapiens, UniProt O60894+P30988); cAMP accumulation, antagonist, LANCE cAMP; COS-7 cells, transfected; 15 min).
With `COc1cc2c(cc1O)C(CCc1ccc(Cl)cc1)N(C)CC2` (stereo not drawn) the Ki was 1 µM (ADRA1D; cell-free assay, radioligand).
The EC50 of `CC(C)[C@H](NC(=O)[C@@H]1CSSC(C)(C)[C@H](NC(=O)[C@@H](N)CC(=O)O)C(=O)N[C@@H](Cc2ccccc2)C(=O)N[C@@H](Cc2c[nH]c3ccccc23)C(=O)N[C@@H](CCCCN)C(=O)N[C@@H](Cc2ccc(O)cc2)C(=O)N1)C(=O)O` is reported as 0.00398 µM (UTS2R (Homo sapiens, UniProt Q9UKP6, M134A); IP1 accumulation, agonist, HTRF; HEK293T; 1 h, 37 °C, M134A mutant, 3.36).
`CS(C)(=O)=Nc1ccc(-c2ccc(-c3nc4cc(O[C@@H]5CO[C@H]6[C@@H]5OC[C@H]6O)[nH]c4cc3F)cc2)cc1` has an inhibition of -3% (MAPKAPK2 (Homo sapiens, UniProt P49137); enzyme activity, inhibitor; 10 µM).
With `O=C1NC2(CC2)COc2ncc(F)cc2[C@H]2COCCN2c2ccn3ncc1c3n2` the serum potassium was 4.75 ± 0.68 mmol/L (Sprague-Dawley rat, male, serum; oral, 5 mg/kg/day, end of treatment, 4-week subacute toxicity).
`Cc1cc(O)cc(C)c1C[C@H](N)C(=O)N[C@H](CCCNC(=N)N)C(=O)N[C@@H](Cc1ccccc1)C(=O)N(C)CC(=O)N(C)Cc1cc(C(F)(F)F)cc(C(F)(F)F)c1` has a Ki of 0.00486 ± 0.00091 µM (OPRD1 (Homo sapiens, UniProt P41143, S143C)).
The inhibition of `CN(C)[C@H]1C[C@@]23CC[C@@]4(O2)C(=CC[C@]2(C)[C@@H](c5ccc6ccncc6c5)CC[C@H]24)C=C3[C@@H](O)[C@@H]1O` is reported as 0.4% (STK38 (Homo sapiens, UniProt Q15208); ATP probe labelling, inhibitor, KiNativ profiling; 1 µM).
`C[C@H](N)C(=O)N[C@@H](CCCNC(=N)N)C(=O)N[C@H](C(=O)N[C@@H](CCCC[N+](C)(C)C)C(=O)N[C@@H](CCC(N)=O)C(=O)N[C@H](C(=O)N[C@@H](C)C(=O)N[C@@H](CCCNC(=N)N)C(=O)N[C@@H](CCCCN)C(=O)N[C@@H](CO)C(=O)N[C@H](C(=O)NCC(N)=O)[C@@H](C)O)[C@@H](C)OP(=O)(O)O)[C@@H](C)O` has a Kd of > 480 µM (V(D)J recombination-activating protein 2, PHD finger (Rag2, Mus musculus, UniProt P21784); binding, isothermal titration calorimetry; pH 7.2, histone H3 peptide).
`Cc1cccc(/N=N/c2cccc([B-](F)(F)F)c2)c1` gave a Ki of 212 µM (Chymotrypsinogen A (Bos taurus, UniProt P00766); enzyme activity, inhibitor; pH 7.81, 25 °C, cis-enriched photostationary state, with: Suc-AAPF-AMC).
The EC50 of `O=C(O)CCn1c(=O)oc2cc(Cl)c(Cl)cc21` is reported as > 100 µM (OPRK1 (Homo sapiens, UniProt P41145); agonist).

For quick reference, copied from above:
With `COc1cc2c(cc1O)C(CCc1ccc(Cl)cc1)N(C)CC2` (stereo not drawn) the Ki was 1 µM (ADRA1D; cell-free assay, radioligand).
With `CN(C)[C@H](CNC(=O)/C=C/c1cccc2ccccc12)Cc1ccc(O)cc1` the Ki was 1.2 µM (DRD1 (Homo sapiens, UniProt P21728); cell-free assay).
